Experimental data gathered from unrelated publications.
A part holds a random share of what one study measured. Changes are numbered by the printed parent chain.

Sample 1 — technique: RNA Bind-n-Seq; molecule type: RNA; matrix: in vitro; concentration: 365 nM; reference: no-protein control; reading: higher = stronger binding
Target: RNA binding protein fox-1 homolog 2, RRM domain, GST-SBP tag (RBFOX2, Homo sapiens, UniProt O43251-10, residues 100-194)
Notes: natural RNA segment, single round, ends assumed
All sequences stand within: GGGAGUUCUACAGUCCGACGAUC … UGGAAUUCUCGGGUGCCAA
Residues (chain): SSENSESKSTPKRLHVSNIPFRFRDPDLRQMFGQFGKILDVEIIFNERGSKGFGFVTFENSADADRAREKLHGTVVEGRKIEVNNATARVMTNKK
Oligonucleotide | RBNS enrichment (R)
AACUGAUCUCCCCCACCCUUGGAUUAGAGUUCCUGCUCUACCUUACCCACAGAUAACACAUGUUGUUUCUACUUGUAAAUGUAAAGUCUUUAAAAUAAACUAUUACAGAU | 0.233
GGGGAAAAGAAUGUGCAGUAGAGUGCAAAUACAUUACAAUUACUGGAAAAUUGGUGGAAAAUGCUUUUUGGGGUUACAAUUAUAUCAUUUUUAAGUGUUGAUGCUUUGUA | 0.9
AACACAGGGGCAAAGGAAGACAGGCCUGAUGUGCCCACUCAUCUAUGGACUCAGAGCUGUGUGCUUUGCUCCUGCAUCUUGUUGAGGUGCUGUUCCAGCUUUGCAUUUCU | 0.423
UUUUGACCUUUUCAAAUAAAUAUGGAUGGCGAGCUCCUAGGCCUCUGGCUUCCUGGUAGAGGGCGGCAUGCCGAAGGGUCUGCUGGGUGUGGAUUGGAUGCUGGGGUGUG | 1.17
AUAUGGCAGUAAAAAUGUGAUUACUUUGUAUGUACAUUAACCAAAACCAGUGAAGUUUGAUGGACUGUGCAUAGAGUUUUGCAGCUUUUGAGUAGUGUGACAGAGUUUGC | 0.573
GAAUAUUUCCAACAGUGUUUUUUGCAAAUUAGAGCAGGACAAACUUUUAUGUUUACAGGGCACGUCUGUUGUAAUGCAAAGCAUAUUUGGCAAGCAGUUCAUCACCAGGA | 0.285
GCUUGUGAUUUUUGUACAUUGAUUUUGUAUCCUGAGACUUUGCUGAAGUUGCUUAUCAGCUUAAGGAGAUUUUGGGCUGAGACGAUGGGGUUUUCUAGAUAUACAAUCAU | 0.582
CCAGCGAGCUGUAGGCCAUGUCACAGAACCGAGGCAGAGCAGUGCUUUGAGUAGGACAACAAGGAACAUUAAAGAAGGAAAGUUCUAGAACAAUCUUUUGCUAAAAAAAA | 0.458
UGGAGUCAGCUGCACACCAGUAGUAUGGCAUGCUACGAUCAGGUUCUGUCCUGAAAGCUUUGCCUCUUUCUUGGCAAAGUUUCUGGUAUGGUCAAGCUUGUAAAUAACUU | 0.878
UGCUUAUUUAGUUUUUGUUUCUACAGGUCAAACAUGAUUGCUUUCUAUAAAAGAAAUGCUUGAGAGGUUGACUAUAAUGGAUAUGUCACAGGUAUAAAACAGUUGUUUUC | 0.426
AGGGAUUCUACGUGUAGCCCUGGCUGACCUAGAAUUAGCUCUGAAGACCAGGCUGACCUUGAACUUACAGAGAUCCACCUCCCUGCCUCCCGAGUGCUGGAGCUAAUGGG | 0.212
CCGGGUGGGGGCAAUGCAAAAUUGUAUUUGGAAACUAGGAAAAAUUAAGAAACCAAAUAAAUUGGUUUUGCUUCCUUGCCAUGGAUUCUGGAAGGACAUAGUUCUUCUAA | 0.456

Sample 2 — technique: universal PBM; molecule type: double-stranded DNA, one strand shown; matrix: in vitro; concentration: 600 nM; reading: higher = stronger binding
Target: Sal-like protein 4, full length isoform A (SALL4, Homo sapiens, UniProt Q9UJQ4, residues 1-1053)
Chain of UniProt Q9UJQ4 (whole entry, looked up): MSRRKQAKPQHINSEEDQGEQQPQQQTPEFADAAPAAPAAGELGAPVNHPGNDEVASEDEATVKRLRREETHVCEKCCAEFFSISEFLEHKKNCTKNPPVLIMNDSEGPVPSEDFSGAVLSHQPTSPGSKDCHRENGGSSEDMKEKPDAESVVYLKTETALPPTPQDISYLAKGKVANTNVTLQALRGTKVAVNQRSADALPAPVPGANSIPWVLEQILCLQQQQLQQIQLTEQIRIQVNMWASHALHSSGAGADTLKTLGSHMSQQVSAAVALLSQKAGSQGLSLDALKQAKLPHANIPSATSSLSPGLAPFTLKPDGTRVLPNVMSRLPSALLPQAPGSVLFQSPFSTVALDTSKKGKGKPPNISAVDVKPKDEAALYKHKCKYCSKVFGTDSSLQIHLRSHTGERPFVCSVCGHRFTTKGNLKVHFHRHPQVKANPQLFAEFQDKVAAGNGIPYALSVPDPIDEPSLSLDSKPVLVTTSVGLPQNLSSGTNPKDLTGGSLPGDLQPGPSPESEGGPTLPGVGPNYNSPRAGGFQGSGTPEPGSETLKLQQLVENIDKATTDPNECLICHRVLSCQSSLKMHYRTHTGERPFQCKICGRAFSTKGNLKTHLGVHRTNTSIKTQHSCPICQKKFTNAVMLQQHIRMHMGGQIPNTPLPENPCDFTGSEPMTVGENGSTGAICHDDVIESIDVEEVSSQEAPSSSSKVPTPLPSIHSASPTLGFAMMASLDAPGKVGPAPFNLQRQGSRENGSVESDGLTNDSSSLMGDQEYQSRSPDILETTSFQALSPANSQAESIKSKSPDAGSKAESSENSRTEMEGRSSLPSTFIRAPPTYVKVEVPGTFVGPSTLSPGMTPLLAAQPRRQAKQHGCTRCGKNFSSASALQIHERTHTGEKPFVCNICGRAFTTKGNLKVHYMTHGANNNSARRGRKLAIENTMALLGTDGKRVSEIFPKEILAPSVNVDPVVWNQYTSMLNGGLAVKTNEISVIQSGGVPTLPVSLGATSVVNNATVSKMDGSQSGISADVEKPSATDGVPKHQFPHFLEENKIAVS
Notes: 8-mer, flanks averaged, mean of replicates
Oligonucleotide | E-score
CGGCTCTC | -0.242
GATCCATA | 0.244
CCCTAGGG | -0.3
CCACCGGC | -0.371
CGGATTGA | -0.0572
ACGGATAT | 0.237
AATCTTGC | 0.216
AACTGATA | 0.207
GGAAGGAC | -0.111
GCACCTCC | -0.392
GAGGATGA | 0.0378
AGAGGTCG | -0.0802
CCACGAGG | -0.207
GACTCACC | -0.11
GGCCGCCC | -0.436
ACCGTCGT | -0.149
CCTCCTTC | -0.21

Sample 3 — technique: RNA Bind-n-Seq; molecule type: RNA; matrix: in vitro; concentration: 200 nM; notes: whole 134-nt RNA, ends assumed; added: 150 mM LiCl; reference: input library; reading: higher = stronger binding; all molecules: 7-deaza-guanosine replaces G
Target: Ras GTPase-activating protein-binding protein 1, full length (G3BP1, Homo sapiens, UniProt Q13283)
Chain of UniProt Q13283 (whole entry, looked up): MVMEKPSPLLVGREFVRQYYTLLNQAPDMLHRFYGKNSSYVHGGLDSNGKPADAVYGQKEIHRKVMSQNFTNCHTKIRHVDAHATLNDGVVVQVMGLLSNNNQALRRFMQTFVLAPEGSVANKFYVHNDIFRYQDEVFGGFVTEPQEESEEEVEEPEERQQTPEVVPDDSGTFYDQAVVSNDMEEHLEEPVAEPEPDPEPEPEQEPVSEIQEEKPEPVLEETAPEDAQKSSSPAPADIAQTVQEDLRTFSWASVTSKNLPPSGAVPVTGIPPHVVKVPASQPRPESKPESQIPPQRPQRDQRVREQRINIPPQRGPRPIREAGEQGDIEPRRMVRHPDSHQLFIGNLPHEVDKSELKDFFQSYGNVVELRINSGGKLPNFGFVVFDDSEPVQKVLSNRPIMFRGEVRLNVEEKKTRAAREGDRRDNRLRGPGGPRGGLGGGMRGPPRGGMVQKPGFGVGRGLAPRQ
All sequences stand within: GGGAGUUCUACAGUCCGACGAUC … UGGAAUUCUCGGGUGUCAAGG
Oligonucleotide | log2 enrichment
UAACUUUAGAGGAGGAUCUGAUGGAUAUGGCAGUGGACGUGGAUUUGGGGAUGGCUAUAAUGAGUAUGGAGGAGGACCUGGAGGUGGCAA | 0.288
CCUGUGCUACACAUCGUAUGUACCGAAUCGGGCCCCCCCGGCCCCCCCGGCCCCCCCGGGGAAAGUAUUAUGUUACGCCGUUCGGAUCUG | -0.0195
UGGCCCUAGUGGCAUGCGGGGAGGAAGAGGUGGCCUCAUGGAUCGUGGUGGUCCCGGUGGAAUGUUCAGAGGUGGCCGUGGUGGAGACAG | 0.365
CUCAAGUCCUGUGCUACACAUCGUAUGUACCGAAUCGGGCCGGGGCCGGGCCGGAAAGUAUUAUGUUACGCCGUUCGGAUCUGCACUUCC | 0.361
UAACUUUAGAGGAGGAUCUGAUGGAUAUGGCAGUGGACGUGGAUUUGGGGAUGGCUAUAAUGGGUAUGGAGGAGGACCUGGAGGUGGCGA | -0.0665
CCUCAAGUCCUGUGCUACACAUCGUAUGUACCGAAUCGGGCGGGCGGGGCGGAAAGUAUUAUGUUACGCCGUUCGGAUCUGCACUUCCAG | 0.102
GCAGGAAGUAAAAACAAAUGGAAAAAAUUCGGAUAGUGGCAGGGGUGGGGGUUGCUAAGGAAAGGGUGGGAUGGGAGUGGGUAAAGAGUU | -0.382
UGACCCUGGUGGCAUGCGGGGAGGAAGAGGUGGCCUCAUGGAUCGUGGUGGUCCCGGUGGAAUGUUCAGAGGUGGCCGUGGUGGAGACAG | 0.233
UCCUCAAGUCCUGUGCUACACAUCGUAUGUACCGAAUCGGGAGGAGGAGGGAAAGUAUUAUGUUACGCCGUUCGGAUCUGCACUUCCAGC | -0.508
CCUCAAGUCCUGUGCUACACAUCGUAUGUACCGAAUCGGGUGGGUGGGUGGGAAAGUAUUAUGUUACGCCGUUCGGAUCUGCACUUCCAG | 0.287
UCAAGUCCUGUGCUACACAUCGUAUGUACCGAAUCGGAAAGGGAAAGGGGAAAGGAAAGUAUUAUGUUACGCCGUUCGGAUCUGCACUUC | -0.478

Sample 4 — target: CCND2, cyclin fold, Cln2 fusion (human); technique: yeast growth competition, sequencing; matrix: yeast; notes: weak parent motif; reference: not given; reading: higher = stronger binding
Starting sequence: RBL2 docking peptide (human); STTRRRLFVENDS
Variant | normalised enrichment score
T3Y | 0.554
T3M | 0.447
V9D | 0.0498
V9H | 0.147
R6G | -0.374
L7G | -0.594
V9A | 0.339
R4Q | 0.226
L7S | 0.215
N11R | 0.0113
R5E | 0.2
T2H | 0.461
V9M | 0.368

Sample 5 — technique: protein binding microarray; molecule type: double-stranded DNA, one strand shown; matrix: in vitro; concentration: not given; reference: not given; reading: higher = stronger binding
Target: Histone acetyltransferase KAT6A, both winged helices, GST fusion (KAT6A, Homo sapiens, UniProt Q92794, residues 1-181)
Notes: 8-mer, flanks averaged, mean of 2 arrays, mostly near background
Residues (chain): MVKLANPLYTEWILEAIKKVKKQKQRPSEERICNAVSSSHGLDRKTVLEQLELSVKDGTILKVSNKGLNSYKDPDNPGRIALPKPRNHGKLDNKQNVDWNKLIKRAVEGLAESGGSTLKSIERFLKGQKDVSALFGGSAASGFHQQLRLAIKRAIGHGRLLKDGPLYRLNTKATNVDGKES
Oligonucleotide | E-score
CGCAGACA | 0.107
GCAGGCGA | -0.109
CTGCCGTA | 0.182
CGGATACA | 0.237
ATGTGTCC | 0.067
ATGTACGC | 0.0958
CGAAGCCG | 0.217
CAGACTGA | -0.00413
CTTAAAGA | -0.083
GCCCGGCA | 0.169
GATATTTA | -0.0591
CATCCAGA | -0.105
ACACAGAT | -0.197
ACAGTGGT | -0.246
TTCTACAA | -0.00861
CTTCTCGC | 0.108
CTAATCCA | -0.155
CGCAAAAG | 0.163
GTTAGTGA | -0.206
CTGATTCA | -0.114
AATAGCTG | -0.118
CCCACTCG | -0.099
GAGAGCGA | 0.0274
GCAAGGAC | 0.0125
CTCTTGGA | -0.0945

Repeated from above (sample 3):
Oligonucleotide | log2 enrichment
CCUCAAGUCCUGUGCUACACAUCGUAUGUACCGAAUCGGGUGGGUGGGUGGGAAAGUAUUAUGUUACGCCGUUCGGAUCUGCACUUCCAG | 0.287
UCCUCAAGUCCUGUGCUACACAUCGUAUGUACCGAAUCGGGAGGAGGAGGGAAAGUAUUAUGUUACGCCGUUCGGAUCUGCACUUCCAGC | -0.508
UAACUUUAGAGGAGGAUCUGAUGGAUAUGGCAGUGGACGUGGAUUUGGGGAUGGCUAUAAUGAGUAUGGAGGAGGACCUGGAGGUGGCAA | 0.288
UGGCCCUAGUGGCAUGCGGGGAGGAAGAGGUGGCCUCAUGGAUCGUGGUGGUCCCGGUGGAAUGUUCAGAGGUGGCCGUGGUGGAGACAG | 0.365
UAACUUUAGAGGAGGAUCUGAUGGAUAUGGCAGUGGACGUGGAUUUGGGGAUGGCUAUAAUGGGUAUGGAGGAGGACCUGGAGGUGGCGA | -0.0665
CCUCAAGUCCUGUGCUACACAUCGUAUGUACCGAAUCGGGCGGGCGGGGCGGAAAGUAUUAUGUUACGCCGUUCGGAUCUGCACUUCCAG | 0.102
UCAAGUCCUGUGCUACACAUCGUAUGUACCGAAUCGGAAAGGGAAAGGGGAAAGGAAAGUAUUAUGUUACGCCGUUCGGAUCUGCACUUC | -0.478
CCUGUGCUACACAUCGUAUGUACCGAAUCGGGCCCCCCCGGCCCCCCCGGCCCCCCCGGGGAAAGUAUUAUGUUACGCCGUUCGGAUCUG | -0.0195
CUCAAGUCCUGUGCUACACAUCGUAUGUACCGAAUCGGGCCGGGGCCGGGCCGGAAAGUAUUAUGUUACGCCGUUCGGAUCUGCACUUCC | 0.361
GCAGGAAGUAAAAACAAAUGGAAAAAAUUCGGAUAGUGGCAGGGGUGGGGGUUGCUAAGGAAAGGGUGGGAUGGGAGUGGGUAAAGAGUU | -0.382
UGACCCUGGUGGCAUGCGGGGAGGAAGAGGUGGCCUCAUGGAUCGUGGUGGUCCCGGUGGAAUGUUCAGAGGUGGCCGUGGUGGAGACAG | 0.233
